# Assay results collected from several papers.
# Lines come from different studies, so protocols differ. ± gives the spread as reported.
# T1: FMN riboswitch RNA (Escherichia coli); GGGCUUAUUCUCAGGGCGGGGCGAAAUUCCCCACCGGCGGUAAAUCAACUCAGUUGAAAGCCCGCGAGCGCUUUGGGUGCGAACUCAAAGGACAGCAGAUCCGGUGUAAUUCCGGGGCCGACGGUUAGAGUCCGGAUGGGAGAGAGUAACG
# Sequence of UniProt P17931 (whole entry, unmodified, looked up): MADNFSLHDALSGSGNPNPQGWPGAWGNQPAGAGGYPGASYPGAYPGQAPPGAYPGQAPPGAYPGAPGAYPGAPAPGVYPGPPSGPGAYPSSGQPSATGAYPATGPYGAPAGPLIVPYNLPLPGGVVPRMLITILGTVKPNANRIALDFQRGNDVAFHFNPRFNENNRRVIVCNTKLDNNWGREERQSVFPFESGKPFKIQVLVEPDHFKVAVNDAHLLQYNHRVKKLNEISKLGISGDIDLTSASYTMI
# Sequence of UniProt P10275 (whole entry, looked up): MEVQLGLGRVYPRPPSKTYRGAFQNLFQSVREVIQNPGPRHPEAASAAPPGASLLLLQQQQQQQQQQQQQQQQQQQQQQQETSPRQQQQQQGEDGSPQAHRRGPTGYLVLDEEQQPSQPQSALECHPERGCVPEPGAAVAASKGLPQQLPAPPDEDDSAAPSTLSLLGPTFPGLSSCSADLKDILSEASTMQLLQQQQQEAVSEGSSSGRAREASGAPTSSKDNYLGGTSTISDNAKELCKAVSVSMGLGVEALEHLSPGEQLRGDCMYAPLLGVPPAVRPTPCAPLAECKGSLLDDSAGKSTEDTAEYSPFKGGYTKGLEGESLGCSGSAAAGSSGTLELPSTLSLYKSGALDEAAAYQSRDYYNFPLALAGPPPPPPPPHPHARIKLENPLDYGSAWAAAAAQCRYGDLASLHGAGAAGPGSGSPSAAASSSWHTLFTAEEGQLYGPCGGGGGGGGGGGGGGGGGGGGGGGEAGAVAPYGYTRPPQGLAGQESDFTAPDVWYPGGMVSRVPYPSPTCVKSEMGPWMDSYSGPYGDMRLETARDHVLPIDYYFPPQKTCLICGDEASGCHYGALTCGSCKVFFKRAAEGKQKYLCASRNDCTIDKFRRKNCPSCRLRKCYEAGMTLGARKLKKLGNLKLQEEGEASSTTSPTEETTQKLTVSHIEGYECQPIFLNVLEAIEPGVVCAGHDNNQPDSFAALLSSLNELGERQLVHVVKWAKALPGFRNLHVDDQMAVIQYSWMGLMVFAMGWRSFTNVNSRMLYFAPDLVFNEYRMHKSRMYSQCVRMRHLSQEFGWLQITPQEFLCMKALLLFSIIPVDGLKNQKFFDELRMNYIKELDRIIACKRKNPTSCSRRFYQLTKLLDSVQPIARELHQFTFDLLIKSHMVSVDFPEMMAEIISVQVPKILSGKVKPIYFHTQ
# Sequence of UniProt P07237 (whole entry, looked up): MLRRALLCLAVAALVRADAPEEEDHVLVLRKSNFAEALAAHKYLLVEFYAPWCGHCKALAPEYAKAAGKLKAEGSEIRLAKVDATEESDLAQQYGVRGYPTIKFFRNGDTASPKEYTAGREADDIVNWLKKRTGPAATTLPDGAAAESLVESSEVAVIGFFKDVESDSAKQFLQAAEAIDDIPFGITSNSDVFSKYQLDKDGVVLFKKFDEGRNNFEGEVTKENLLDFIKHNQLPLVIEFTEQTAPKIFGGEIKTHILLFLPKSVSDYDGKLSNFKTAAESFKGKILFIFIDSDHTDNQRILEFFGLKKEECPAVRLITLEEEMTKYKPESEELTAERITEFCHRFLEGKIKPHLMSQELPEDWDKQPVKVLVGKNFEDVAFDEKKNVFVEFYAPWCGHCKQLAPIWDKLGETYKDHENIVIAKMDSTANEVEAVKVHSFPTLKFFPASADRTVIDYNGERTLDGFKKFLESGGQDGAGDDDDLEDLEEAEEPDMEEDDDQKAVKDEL
# Sequence of UniProt P43220 (whole entry, looked up): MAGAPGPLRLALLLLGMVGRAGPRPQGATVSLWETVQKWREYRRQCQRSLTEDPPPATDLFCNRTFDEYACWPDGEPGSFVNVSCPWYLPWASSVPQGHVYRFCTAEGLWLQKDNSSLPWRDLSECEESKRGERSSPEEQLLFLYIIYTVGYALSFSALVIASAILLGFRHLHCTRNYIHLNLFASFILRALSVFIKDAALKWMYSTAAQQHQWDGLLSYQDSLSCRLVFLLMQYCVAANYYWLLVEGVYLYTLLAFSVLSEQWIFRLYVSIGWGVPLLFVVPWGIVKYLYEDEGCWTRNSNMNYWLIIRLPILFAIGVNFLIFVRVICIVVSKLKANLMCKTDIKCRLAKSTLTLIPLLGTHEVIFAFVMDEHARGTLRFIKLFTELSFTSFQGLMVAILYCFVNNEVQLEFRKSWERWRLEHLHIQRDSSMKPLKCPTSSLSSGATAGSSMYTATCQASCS
# Sequence of UniProt P31424 (whole entry, looked up): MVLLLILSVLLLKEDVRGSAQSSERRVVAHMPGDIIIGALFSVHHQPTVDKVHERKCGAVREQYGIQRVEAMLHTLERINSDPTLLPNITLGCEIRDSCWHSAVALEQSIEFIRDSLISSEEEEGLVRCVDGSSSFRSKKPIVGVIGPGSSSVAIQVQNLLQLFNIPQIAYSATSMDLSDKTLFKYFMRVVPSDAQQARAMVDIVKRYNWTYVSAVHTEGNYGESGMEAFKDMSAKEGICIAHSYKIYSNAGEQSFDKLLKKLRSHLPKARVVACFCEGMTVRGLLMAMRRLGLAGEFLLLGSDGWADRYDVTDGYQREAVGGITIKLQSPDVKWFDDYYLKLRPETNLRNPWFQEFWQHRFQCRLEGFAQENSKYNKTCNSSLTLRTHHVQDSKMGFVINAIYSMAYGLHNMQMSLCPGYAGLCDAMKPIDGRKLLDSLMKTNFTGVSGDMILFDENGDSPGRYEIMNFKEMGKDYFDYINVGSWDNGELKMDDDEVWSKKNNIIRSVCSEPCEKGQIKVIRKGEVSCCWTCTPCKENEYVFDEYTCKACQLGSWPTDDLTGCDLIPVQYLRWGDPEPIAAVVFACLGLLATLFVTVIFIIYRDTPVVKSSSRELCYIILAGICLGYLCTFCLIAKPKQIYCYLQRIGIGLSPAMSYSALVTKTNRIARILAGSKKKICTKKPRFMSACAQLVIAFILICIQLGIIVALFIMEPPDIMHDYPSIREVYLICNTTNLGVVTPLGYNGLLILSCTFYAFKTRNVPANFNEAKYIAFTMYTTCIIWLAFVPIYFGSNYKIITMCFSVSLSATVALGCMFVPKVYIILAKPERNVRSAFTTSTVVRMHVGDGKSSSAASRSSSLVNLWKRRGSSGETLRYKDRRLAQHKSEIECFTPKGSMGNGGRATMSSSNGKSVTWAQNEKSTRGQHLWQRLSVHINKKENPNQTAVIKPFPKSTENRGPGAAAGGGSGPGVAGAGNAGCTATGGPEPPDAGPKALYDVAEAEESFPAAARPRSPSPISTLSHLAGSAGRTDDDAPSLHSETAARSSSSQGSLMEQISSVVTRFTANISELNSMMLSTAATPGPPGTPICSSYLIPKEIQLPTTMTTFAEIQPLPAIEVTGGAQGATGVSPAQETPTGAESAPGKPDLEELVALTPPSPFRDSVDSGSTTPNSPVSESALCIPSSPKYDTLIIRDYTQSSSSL
# Sequence of UniProt P24723 (whole entry, looked up): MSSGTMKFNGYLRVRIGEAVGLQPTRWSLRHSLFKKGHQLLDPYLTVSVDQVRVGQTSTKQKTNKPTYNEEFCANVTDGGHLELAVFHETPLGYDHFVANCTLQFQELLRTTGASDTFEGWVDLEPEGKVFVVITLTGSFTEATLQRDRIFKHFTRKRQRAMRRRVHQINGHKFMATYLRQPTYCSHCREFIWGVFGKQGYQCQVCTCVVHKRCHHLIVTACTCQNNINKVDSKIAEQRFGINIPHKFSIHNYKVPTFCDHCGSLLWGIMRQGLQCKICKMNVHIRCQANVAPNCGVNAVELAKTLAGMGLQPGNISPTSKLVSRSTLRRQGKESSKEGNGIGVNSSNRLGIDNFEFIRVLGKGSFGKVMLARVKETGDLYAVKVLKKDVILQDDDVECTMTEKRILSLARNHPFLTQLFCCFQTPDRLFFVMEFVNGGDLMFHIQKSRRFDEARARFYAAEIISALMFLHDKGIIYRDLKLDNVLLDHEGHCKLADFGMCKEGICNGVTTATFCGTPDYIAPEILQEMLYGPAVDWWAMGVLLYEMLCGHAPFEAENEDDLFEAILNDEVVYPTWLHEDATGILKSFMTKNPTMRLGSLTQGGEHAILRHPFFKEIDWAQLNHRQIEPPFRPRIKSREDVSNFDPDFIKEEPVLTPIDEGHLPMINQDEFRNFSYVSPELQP
# Sequence of UniProt P05067 (whole entry, looked up): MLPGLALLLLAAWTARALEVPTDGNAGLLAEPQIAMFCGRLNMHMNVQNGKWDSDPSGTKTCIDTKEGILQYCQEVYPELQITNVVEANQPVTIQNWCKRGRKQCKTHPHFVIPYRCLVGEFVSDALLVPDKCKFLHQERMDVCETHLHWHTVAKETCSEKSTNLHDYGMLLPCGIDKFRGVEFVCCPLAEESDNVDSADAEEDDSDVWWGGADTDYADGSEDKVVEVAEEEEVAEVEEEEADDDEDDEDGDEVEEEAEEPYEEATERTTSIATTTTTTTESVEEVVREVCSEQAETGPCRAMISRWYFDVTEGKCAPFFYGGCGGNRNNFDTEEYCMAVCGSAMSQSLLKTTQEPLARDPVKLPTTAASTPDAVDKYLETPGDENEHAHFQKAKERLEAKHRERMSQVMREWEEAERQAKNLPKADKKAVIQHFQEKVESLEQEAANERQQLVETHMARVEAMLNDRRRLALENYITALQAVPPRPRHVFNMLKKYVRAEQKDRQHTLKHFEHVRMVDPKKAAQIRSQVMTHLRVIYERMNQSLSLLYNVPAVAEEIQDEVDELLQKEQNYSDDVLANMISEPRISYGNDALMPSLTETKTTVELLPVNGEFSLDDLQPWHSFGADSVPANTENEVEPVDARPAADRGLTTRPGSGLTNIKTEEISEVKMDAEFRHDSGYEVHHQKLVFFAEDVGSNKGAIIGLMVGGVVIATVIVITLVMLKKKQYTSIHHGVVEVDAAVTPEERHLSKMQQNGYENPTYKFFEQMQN
Compound,target,assay,test system,conditions,how to read,endpoint,result
[3H]C([3H])([3H])Nc1ccc(-c2nc3ccc(O)cc3o2)cn1,"Amyloid-beta precursor protein, Aβ40 fibrils (APP, Homo sapiens, UniProt P05067)",,Aβ(1-40) fibrils,,,dissociation half-life first phase,12 ± 2.4 s
CN1CCC(CCNC(=O)c2ccc(C3(NC(=O)c4cc5cc(C(=O)O)cnc5n4C)CC3)cc2)CC1,"T1, FMN riboswitch RNA (Escherichia coli)",ITC,,KCl 100 mM,,Kd,15 nM
N#Cc1cccc(/C=C/C(=O)c2ccc(O)cc2)c1,"P4HB (Homo sapiens, UniProt P07237)","target stabilization, CETSA",U-87 MG,"100 µM, 2 h",,thermal shift,1 to 2 °C
COc1ccc(/C=C/C(=O)NC[C@H]2O[C@H](OC)[C@@H](O)[C@@H](O)[C@@H]2O)cc1OC,"lecB (Pseudomonas aeruginosa, UniProt Q9HYN5)","binding, ITC",,25 °C,,ΔH,-5.63 ± 0.21 kcal/mol
CCCC(CC)Sc1nc2c([nH]1)c(=S)n(C)c(=O)n2C (stereo not drawn),"Androgen receptor (AR, Homo sapiens, UniProt P10275)","reporter gene, antagonist, PSA-luciferase",HeLa-A6,"10 µM, 24 h, added: 5 nM dihydrotestosterone",relative to: maximal activity,remaining activity,78%
COc1c(F)c(F)c(C(=O)N[C@H]2[C@@H](O)[C@@H](CO)O[C@@H](S[C@@H]3O[C@H](CO)[C@H](O)[C@H](NC(=O)c4c(F)c(F)c(OC)c(F)c4F)[C@H]3O)[C@@H]2O)c(F)c1F,"Galectin-3 (LGALS3, Homo sapiens, UniProt P17931)",ITC,,,,–TΔS,4.3 ± 0.717 kcal/mol
CC(C)CCC[C@@H](C)[C@H]1CC[C@H]2[C@@H]3CC=C4C[C@@H](OS(=O)(=O)O)CC[C@]4(C)[C@H]3CC[C@]12C,"Prothrombin (F2, Homo sapiens, UniProt P00734)",Spectrozyme TH hydrolysis,,"490 µM, pH 7.4, 25 °C",,Vmax,10.5 ± 0.8 mAU/min
CC(/C=C/C(O)=C1/C(=O)CNC1=O)=C\[C@@H](C)[C@H]1O[C@@]2(C)O[C@H](C[C@@H]3O[C@@]32C)[C@@H]1C,"Cytochrome P450 TamI (Streptomyces sp. 307-9, UniProt D3Y1J3)",substrate,,,,kcat,8.33e-05 ± 1.67e-05 s⁻¹
COc1ccc(-c2cc(C(F)(F)F)nc(SCC(=O)N(C)c3ccccc3)n2)cc1,"GLP1R (Homo sapiens, UniProt P43220)","efficacy cooperativity, allosteric modulator",HEK-293T overexpressing GLP1R,added: GLP-1(9-36),,cooperativity factor beta,1
N#Cc1cc(F)cc(-c2ccc3cccnc3c2)c1,"Grm5 (Rattus norvegicus, UniProt P31424)","calcium mobilization, antagonist",,"30 µM, added: glutamate 100 µM (EC80)",,response,1.8 ± 0.2 % glutamate max
C[C@@H](N)[C@H]1CC[C@H](C(=O)Nc2ccncc2)CC1,"PRKCH (Homo sapiens, UniProt P24723)","enzyme activity, inhibitor, radiometric",,10 µM,,activity vs control,< 10%
CC(C)C[C@H](NC(=O)CN)C(=O)N[C@@H](CO)C(=O)N[C@@H](Cc1ccccc1)C(=O)N[C@@H](C)C(=O)N[C@@H](Cc1ccccc1)C(=O)N1CCC[C@H]1C(=O)N[C@@H](C)C(=O)N[C@@H](CCCCN)C(=O)N[C@@H](CC(=O)O)C(=O)N[C@@H](C)C(=O)N[C@@H](CCC(=O)O)C(=O)N[C@@H](CC(N)=O)C(=O)N[C@@H](C)C(=O)N[C@@H](CO)C(=O)N[C@@H](CO)C(=O)N1CCC[C@H]1C(=O)N[C@H](C(=O)O)C(C)C,"Peptide cyclase 1 (Gypsophila vaccaria, UniProt R4P353, S562A)",ITC,,"pH 8.0, 25 °C",,ΔH,-6.8 ± 0.1 kcal/mol

# For quick reference, copied from above:
Compound,target,assay,test system,conditions,how to read,endpoint,result
CN1CCC(CCNC(=O)c2ccc(C3(NC(=O)c4cc5cc(C(=O)O)cnc5n4C)CC3)cc2)CC1,"T1, FMN riboswitch RNA (Escherichia coli)",ITC,,KCl 100 mM,,Kd,15 nM
